Experimental data of several laboratories.
Numbers after ± are the reported error.
Ahr: Aryl hydrocarbon receptor (Ahr, Mus musculus, UniProt P30561)
Chain of UniProt P30561 (whole entry, looked up): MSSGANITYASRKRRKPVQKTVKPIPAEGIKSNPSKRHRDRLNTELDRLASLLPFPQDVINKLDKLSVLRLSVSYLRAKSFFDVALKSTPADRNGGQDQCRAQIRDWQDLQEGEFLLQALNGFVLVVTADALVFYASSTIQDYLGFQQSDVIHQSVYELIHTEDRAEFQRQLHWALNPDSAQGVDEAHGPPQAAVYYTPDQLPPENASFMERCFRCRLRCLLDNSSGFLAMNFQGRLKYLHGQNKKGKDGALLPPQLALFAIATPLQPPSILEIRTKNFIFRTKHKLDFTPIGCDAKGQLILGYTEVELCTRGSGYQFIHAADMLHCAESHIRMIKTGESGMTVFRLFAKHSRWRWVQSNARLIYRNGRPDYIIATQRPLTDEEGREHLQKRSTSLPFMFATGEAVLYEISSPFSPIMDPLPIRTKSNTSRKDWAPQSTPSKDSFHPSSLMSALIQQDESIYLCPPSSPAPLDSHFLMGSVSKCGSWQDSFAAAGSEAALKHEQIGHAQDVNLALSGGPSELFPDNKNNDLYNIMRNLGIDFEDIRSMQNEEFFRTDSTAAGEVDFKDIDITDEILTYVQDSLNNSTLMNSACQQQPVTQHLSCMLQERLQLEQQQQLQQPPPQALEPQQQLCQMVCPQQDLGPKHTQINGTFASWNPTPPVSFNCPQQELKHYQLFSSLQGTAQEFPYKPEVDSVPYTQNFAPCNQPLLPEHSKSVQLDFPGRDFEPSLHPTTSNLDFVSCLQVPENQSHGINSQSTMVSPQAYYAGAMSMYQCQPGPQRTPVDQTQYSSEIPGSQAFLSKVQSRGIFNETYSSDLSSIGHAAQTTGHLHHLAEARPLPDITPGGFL
CYP1B1: Cytochrome P450 1B1 (CYP1B1, Homo sapiens, UniProt Q16678)
Chain of UniProt Q16678 (whole entry, looked up): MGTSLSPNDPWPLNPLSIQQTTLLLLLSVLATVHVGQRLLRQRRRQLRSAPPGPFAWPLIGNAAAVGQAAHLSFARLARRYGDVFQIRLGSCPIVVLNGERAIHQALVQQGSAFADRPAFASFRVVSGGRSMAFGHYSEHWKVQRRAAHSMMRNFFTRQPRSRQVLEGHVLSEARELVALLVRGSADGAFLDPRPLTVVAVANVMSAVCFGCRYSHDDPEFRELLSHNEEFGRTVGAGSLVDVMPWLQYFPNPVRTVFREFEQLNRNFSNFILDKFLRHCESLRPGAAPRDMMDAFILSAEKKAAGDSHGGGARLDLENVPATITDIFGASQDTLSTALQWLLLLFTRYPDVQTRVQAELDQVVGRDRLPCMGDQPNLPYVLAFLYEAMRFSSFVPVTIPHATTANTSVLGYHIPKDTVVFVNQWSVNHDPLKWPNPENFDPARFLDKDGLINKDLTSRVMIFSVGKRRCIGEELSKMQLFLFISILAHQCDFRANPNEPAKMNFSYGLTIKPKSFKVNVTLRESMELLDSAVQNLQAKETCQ
CYP2D6: Cytochrome P450 2D6 (CYP2D6, Homo sapiens, UniProt P10635)
Chain of UniProt P10635 (whole entry, looked up): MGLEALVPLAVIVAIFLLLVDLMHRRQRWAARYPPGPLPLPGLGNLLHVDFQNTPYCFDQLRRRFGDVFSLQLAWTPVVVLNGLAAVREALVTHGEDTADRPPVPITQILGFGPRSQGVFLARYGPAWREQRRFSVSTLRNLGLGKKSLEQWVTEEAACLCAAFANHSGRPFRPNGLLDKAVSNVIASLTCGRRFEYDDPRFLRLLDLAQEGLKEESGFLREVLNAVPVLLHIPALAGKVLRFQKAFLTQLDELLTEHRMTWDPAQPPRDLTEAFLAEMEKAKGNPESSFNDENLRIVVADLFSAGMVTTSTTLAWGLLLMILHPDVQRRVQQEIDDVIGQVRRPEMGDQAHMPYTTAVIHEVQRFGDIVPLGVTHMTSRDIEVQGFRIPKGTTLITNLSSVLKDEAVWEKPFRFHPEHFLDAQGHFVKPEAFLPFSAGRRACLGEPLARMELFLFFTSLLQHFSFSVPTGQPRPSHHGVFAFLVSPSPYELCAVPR
Chain of UniProt P06873 (whole entry, looked up): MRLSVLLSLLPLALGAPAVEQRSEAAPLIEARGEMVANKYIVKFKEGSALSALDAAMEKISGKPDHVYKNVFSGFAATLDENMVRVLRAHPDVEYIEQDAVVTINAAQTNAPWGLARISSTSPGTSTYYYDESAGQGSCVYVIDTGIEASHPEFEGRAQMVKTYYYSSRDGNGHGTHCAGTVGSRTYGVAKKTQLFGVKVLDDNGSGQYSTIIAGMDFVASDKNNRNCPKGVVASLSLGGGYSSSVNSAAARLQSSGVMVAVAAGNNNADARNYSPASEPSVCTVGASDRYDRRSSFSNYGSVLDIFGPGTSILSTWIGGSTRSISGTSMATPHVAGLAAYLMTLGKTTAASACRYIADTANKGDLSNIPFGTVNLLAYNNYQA
Chain of UniProt P00761 (whole entry, looked up): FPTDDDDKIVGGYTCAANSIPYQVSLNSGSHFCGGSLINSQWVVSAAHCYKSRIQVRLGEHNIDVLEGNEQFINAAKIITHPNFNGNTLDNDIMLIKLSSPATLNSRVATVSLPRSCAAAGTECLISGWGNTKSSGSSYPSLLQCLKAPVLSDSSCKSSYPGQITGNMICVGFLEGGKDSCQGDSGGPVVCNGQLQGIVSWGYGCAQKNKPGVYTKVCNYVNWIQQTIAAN
Chain of UniProt P05181 (whole entry, looked up): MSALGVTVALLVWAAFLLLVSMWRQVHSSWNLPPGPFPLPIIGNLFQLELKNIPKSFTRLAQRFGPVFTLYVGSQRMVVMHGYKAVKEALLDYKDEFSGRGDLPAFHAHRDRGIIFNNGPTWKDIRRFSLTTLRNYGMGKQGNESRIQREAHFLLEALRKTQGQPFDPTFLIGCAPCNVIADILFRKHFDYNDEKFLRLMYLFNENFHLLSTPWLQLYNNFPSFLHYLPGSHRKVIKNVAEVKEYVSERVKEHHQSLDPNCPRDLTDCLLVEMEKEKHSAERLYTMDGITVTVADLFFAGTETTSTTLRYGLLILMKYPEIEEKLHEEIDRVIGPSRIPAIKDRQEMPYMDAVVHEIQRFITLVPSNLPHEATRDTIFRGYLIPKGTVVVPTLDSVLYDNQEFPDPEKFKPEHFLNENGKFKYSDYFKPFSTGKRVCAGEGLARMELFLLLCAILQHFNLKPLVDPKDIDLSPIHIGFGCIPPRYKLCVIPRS
Chain of UniProt Q12809 (whole entry, looked up): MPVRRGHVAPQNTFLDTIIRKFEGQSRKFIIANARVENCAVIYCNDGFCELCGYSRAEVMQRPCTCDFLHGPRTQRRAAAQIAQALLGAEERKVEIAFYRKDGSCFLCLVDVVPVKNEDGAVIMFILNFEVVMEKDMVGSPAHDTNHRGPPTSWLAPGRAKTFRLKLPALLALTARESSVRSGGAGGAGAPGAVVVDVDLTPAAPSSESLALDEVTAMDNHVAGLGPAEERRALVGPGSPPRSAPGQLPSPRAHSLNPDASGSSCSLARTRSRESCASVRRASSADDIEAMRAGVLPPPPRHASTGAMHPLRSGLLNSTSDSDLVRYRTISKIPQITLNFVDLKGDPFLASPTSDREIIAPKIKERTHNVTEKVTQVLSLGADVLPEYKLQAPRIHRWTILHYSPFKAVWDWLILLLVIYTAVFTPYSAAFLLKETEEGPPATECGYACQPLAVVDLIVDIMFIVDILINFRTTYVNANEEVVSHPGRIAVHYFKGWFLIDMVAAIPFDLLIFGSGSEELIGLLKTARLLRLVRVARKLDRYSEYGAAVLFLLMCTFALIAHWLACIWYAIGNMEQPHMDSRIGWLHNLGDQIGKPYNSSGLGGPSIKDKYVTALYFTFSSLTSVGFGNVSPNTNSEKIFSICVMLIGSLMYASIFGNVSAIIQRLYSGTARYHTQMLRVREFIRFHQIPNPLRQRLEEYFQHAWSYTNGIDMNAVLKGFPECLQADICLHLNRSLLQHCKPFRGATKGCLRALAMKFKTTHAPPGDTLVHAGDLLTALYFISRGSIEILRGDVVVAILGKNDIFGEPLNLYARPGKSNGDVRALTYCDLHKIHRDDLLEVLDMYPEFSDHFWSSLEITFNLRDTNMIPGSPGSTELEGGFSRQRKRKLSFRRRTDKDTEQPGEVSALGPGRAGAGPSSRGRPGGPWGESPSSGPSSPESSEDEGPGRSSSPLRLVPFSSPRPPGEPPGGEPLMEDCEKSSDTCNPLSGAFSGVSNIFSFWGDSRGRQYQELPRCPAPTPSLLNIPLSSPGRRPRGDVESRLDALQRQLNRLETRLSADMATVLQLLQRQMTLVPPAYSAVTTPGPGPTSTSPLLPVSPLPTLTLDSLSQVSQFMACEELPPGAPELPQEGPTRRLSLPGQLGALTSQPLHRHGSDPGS
Chain of UniProt Q9Y6L6 (whole entry, looked up): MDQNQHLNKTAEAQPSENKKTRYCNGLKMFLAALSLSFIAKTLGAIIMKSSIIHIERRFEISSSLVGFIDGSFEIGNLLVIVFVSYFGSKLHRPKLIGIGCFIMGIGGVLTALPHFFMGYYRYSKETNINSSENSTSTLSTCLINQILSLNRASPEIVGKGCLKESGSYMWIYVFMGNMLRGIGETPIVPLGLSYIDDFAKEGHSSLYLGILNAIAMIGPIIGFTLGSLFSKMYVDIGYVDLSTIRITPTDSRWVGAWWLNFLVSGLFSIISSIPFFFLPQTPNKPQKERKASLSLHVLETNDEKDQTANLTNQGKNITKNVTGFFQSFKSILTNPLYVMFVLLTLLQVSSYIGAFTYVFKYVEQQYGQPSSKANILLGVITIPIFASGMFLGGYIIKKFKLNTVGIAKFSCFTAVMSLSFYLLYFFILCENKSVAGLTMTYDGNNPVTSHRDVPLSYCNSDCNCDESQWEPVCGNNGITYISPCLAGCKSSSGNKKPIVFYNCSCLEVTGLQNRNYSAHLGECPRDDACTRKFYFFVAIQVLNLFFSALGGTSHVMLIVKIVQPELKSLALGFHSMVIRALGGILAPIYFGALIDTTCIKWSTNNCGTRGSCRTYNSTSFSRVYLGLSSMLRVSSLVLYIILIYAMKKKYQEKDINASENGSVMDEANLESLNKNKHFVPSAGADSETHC

The Km of C1CO1 is reported as no less than 9000 µM (glutathione S-transferase, human; substrate, headspace gas uptake; human, liver cytosol; no saturation seen).
For CC[C@H](C)[C@H](NC(=O)CN)C(=O)N[C@@H](CCCNC(=N)N)C(=O)N[C@@H](CCCNC(=N)N)C(=O)N[C@@H](Cc1ccccc1)C(=O)N[C@@H](CC(C)C)C(=O)N[C@@H](CCCNC(=N)N)C(=O)N[C@]1(C)CCCCCCC=CCCC[C@@](C)(C(=O)N[C@@H](Cc2ccccc2)C(=O)N[C@@H](CCCNC(=N)N)C(N)=O)NC(=O)[C@H](CCCNC(=N)N)NC(=O)[C@H](C(C)C)NC(=O)[C@H](Cc2ccccc2)NC(=O)[C@H](CCCNC(=N)N)NC(=O)[C@H](CCCNC(=N)N)NC(=O)[C@H](C)NC1=O, the remaining compound was 70 to 80% (Trypsin (Sus scrofa, UniProt P00761); UPLC; NH4HCO3 buffer 50 mM; concentration not given, 24 h, pH 7.8, 37 °C, with: Trypsin 0.2 U/mL).
`indolo[3,2-b]carbazole` gave an EC50 of 0.00098 µM (Ahr; reporter gene, activator; H1L7.5c3 (mouse); 6 h).
The Km of CC(C)C=Cc1c(O)cc(/C=C/c2ccc(O)cc2)cc1O is reported as 36.7 ± 5.9 µM (UGT1A7 human; 4'-O-glucuronide formation, substrate; pH 7.4).
Under “Job's plot maximum mole fraction”, C[C@]1(C(=O)[O-])CSC(c2ncc(O)cc2O)=N1.[Na+] is recorded as 0.669 (Fe(III); Job's plot; pH 7.4, total 1.0 mM).
O=S(=O)(O)Oc1ccc(-c2ccc(Cl)cc2)cc1 gave a Km of 41 ± 18.4 µM (sulfatase, human liver microsomes; substrate; pH 7.4, 37 °C).
For C#CCOc1ccc2ccccc2c1, the Kd was 97 ± 19 µM (CYP1B1; reverse type I spectral binding; pH 7.4).
Clc1ccc(-c2cc(Cl)c(Cl)c(Cl)c2)cc1Cl has a Ki of 0.0046 µM (Ahr; binding, competitor; in vitro expressed receptor, with: [3H]TCDD).
With Clc1ccc(-c2ccc(Cl)c(Cl)c2)cc1Cl the EC50 was 0.108 ± 0.039 µM (Ahr; reporter gene, agonist; Hepa-1c1c7; 24 h).
Clc1ccc(-c2cc(Cl)c(Cl)c(Cl)c2Cl)cc1Cl gave a Ki of 0.284 µM (Ahr; binding, competitor; in vitro expressed receptor, with: [3H]TCDD).
O=C(O)COc1ccc(C(=O)c2cccs2)c(Cl)c1Cl has an inhibition of 65 to 78% (CYP2C9, human; inhibitor, item: 11-hydroxy-THC; human liver microsomes, six donors; 50 µM, with CYP3cide and benzylnirvanol, with: THC 2 µM).
For O=[N+]([O-])c1ccc(O)cc1, the hydroxylation rate was 12.9 ± 1.4 min⁻¹ (Cytochrome P450 2E1 (CYP2E1, Homo sapiens, UniProt P05181); substrate; pooled human liver microsomes; 250 µM, pH 7.4, added enzyme to P450 molar ratio 0.5).
CCCSc1ccc2nc(NC(=O)OC)[nH]c2c1 has an inhibition of 31.1% (Cytochrome P450 1A2 (CYP1A2, Homo sapiens, UniProt P05177); inhibitor; human liver microsomes; 2 µM, pH 7.4, with: phenacetin).
With c1ccc(CCN2CCCCC2)cc1 the Ki was greater than 10 µM (KCNH2 (Homo sapiens, UniProt Q12809); ligand displacement, radioligand).
The inhibition of CC(C)(O)c1ccccc1CC[C@@H](SCC1(CC(=O)O)CC1)c1cccc(/C=C/c2ccc3ccc(Cl)cc3n2)c1 is reported as less than 0% (CYP2D6; inhibitor; human liver microsomes; 2 µM, pH 7.4, with: dextromethorphan).
CCCC[C@H](NC(C)=O)C(=O)N[C@@H](CO)C(=O)N[C@H](C(=O)N1CCC[C@H]1C(=O)N[C@@H](C)C(=O)N[C@@H](CCCNC(=N)N)C(=O)N[C@@H](CCCNC(=N)N)C(=O)N[C@@H](CCCNC(=N)N)C(=O)N[C@@H](CC(C)C)C(=O)N[C@@H](CCCC)C(=O)N[C@@H](CCCNC(=N)N)C(=O)N[C@@H](CC(=O)O)C(=O)N[C@@H](Cc1ccccc1)C(=O)N[C@@H](CCCCN)C(=O)N[C@@H](CCCNC(=N)N)C(=O)N[C@@H](CC(C)C)C(=O)N[C@@H](CCC(N)=O)C(N)=O)[C@@H](C)O has a half-life of 17 min (Proteinase K (PROK, Engyodontium album, UniProt P06873); substrate, LC-MS; 25 µM, pH 7.4).
With Nc1ncnc2c1nc(SCCNC(=S)Nc1ccc(-c3c4ccc(=O)cc-4oc4cc(O)ccc34)c(C(=O)O)c1)n2[C@@H]1O[C@@H]2COP(=O)(O)O[C@H]2[C@H]1O the Km was 2.9 µM (SLCO1B1 (Homo sapiens, UniProt Q9Y6L6); substrate; CHO cells; 10 min).
The Km of O=S(=O)(O)Oc1ccc(-c2cccc(Cl)c2)cc1Cl is reported as 15.1 ± 7.1 µM (sulfatase, human liver microsomes; substrate; pH 7.4, 37 °C).
CSc1nc2cc(Cl)c(Oc3cccc(Cl)c3Cl)cc2[nH]1 has an inhibition of 4.19% (CYP2D6; inhibitor; human liver microsomes; 10 µM, pH 7.4, with: dextromethorphan).
Oc1ccc(/C=C/c2cc(O)cc(O)c2)cc1 has a Km of 708 ± 87 µM (UGT1A1 human recombinant; substrate, item: 3-glucuronide; pH 7.4).
With C#CCOCCc1ccc2ccccc2c1 the Kd was 110 ± 3.1 µM (CYP1B1; reverse type I spectral binding; pH 7.4).
With CC[N+]1=C(C=CC=CC=C2N(CCCCCC(=O)NCCN3C(=O)CC(SC[C@@H](NC(=O)[C@@H](CCCNC(=N)N)NC(=O)[C@@H](CCCNC(=N)N)NC(=O)[C@@H](CCCNC(=N)N)NC(=O)[C@@H](CCCNC(=N)N)NC(=O)[C@@H](CCCNC(=N)N)NC(=O)[C@@H](CCCNC(=N)N)NC(=O)[C@@H](CCCNC(=N)N)NC(=O)[C@@H](CCCNC(=N)N)NC(=O)[C@@H](CCCNC(=N)N)NC(=O)[C@H](CC(C)C)NC(=O)[C@H](CCCCN)NC(=O)[C@H](CC(C)C)NC(=O)[C@H](CCC(N)=O)NC(=O)[C@H](CC(C)C)NC(=O)[C@H](CCCNC(=N)N)NC(=O)CCCCCNC(=O)[C@@H](CCC(=O)O)NC(=O)[C@@H](CCC(=O)O)NC(=O)[C@@H](CCC(=O)O)NC(=O)[C@@H](CCC(=O)O)NC(=O)[C@@H](CCC(=O)O)NC(=O)[C@@H](CCC(=O)O)NC(=O)[C@@H](CCC(=O)O)NC(=O)[C@@H](CCC(=O)O)NC(=O)[C@H](N)CCC(=O)O)C(N)=O)C3=O)c3ccc(S(=O)(=O)O)cc3C2(C)C)C(C)(C)c2cc(S(=O)(=O)[O-])ccc21 (stereo partly drawn) the cleavage was less than 3% (Enteropeptidase (TMPRSS15, Homo sapiens, UniProt P98073); substrate; 5 µM).
With CNC(=O)Oc1cc(C)c(SC)c(C)c1 the inhibition was less than 0% (CYP2D6; inhibitor; human liver microsomes; 10 µM, pH 7.4, with: dextromethorphan).
With O=C1Nc2ccc(Cl)cc2[C@@](C#CC2CC2)(C(F)(F)F)O1 the AUC(0-72 h) was 5560 ng·h/mL (Cytochrome P450 2B6 (CYP2B6, Homo sapiens, UniProt P20813); healthy human, plasma; oral, 50 mg, with: midazolam 2 mg, no ritlecitinib).
